Measured values from different studies.
Compare with care: the assays were run in different laboratories. ± gives the spread as reported.
Organism: HIV-1

SMILES	assay	system	conditions	EC50
Cc1cc(C#N)cc(C)c1Oc1cc(Nc2ccc(C#N)cc2)c(N)cc1N	viral replication, p24 ELISA	MT2, IIIB wild type		211 ± 53 nM
COc1cc(NC(C)CCCNC(=O)c2ccccc2N)c2ncccc2c1 (stereo not shown)	cytopathic effect	MT4, NL4.3	5 days	9300 ± 500 nM
Cc1cc(C)cc(S(=O)(=O)c2c(C(=O)NCCCCNS(=O)(=O)c3cccc(F)c3)[nH]c3ccc(Cl)cc23)c1	viral replication	MT-4, IIIB		19 ± 5.1 nM
Cc1cn([C@H]2C[C@H](N=[N+]=[N-])[C@@H](COC(=O)Cn3c(=O)ccn(CCCCCCOc4ccc(Br)cc4)c3=O)O2)c(=O)[nH]c1=O	viral replication, measured: p24gag	MT4, Lai.04	3 days	530 ± 290 nM
O=C1CSC(c2c(Cl)cccc2Cl)N1CCC12CC3CC(CC(C3)C1)C2 (stereo not shown)	viral cytopathicity	CEM, IIIB	4 days	2000 nM
Cc1cn(CC(=O)N[C@@H](C(=O)N(C)c2ccccc2)c2ccccc2)c(=O)[nH]c1=O	viral replication	TZM-GFP, NL4-3		> 20000 nM
Cc1ccc(S(=O)(=O)NCCCNC(=O)c2[nH]c3ccc(Cl)cc3c2S(=O)(=O)c2cc(C)cc(C)c2)cc1	viral replication	MT-4, IIIB		36 ± 12 nM
Cc1cc(C=C2C(=O)C=CC2=O)cc(C)c1O	infectious virus production, measured: p24	MT-4, IIIB	3 d	3600 nM
COc1ccc2c(NC3CCNCC3)nc(NCc3ccc(CNCCCNC4CCCCCC4)cc3)nc2c1	viral replication, luciferase reporter	TZM-bl, IIIB		45.4 ± 8.4 nM
COc1ccc(S(=O)(=O)NCCCCNC(=O)c2[nH]c3ccc(Cl)cc3c2S(=O)(=O)c2cc(C)cc(C)c2)cc1	viral replication	MT-4, IIIB		36 ± 5 nM
O=C(O)c1cc(Br)cc(Br)c1-n1c(-c2ccccc2)nc2ccccc2c1=O	cytopathic effect	MT-4, IIIB	5 days	101 µg/mL
Cc1cc(C)cc(S(=O)(=O)c2c(C(=O)NCCCNS(=O)(=O)c3ccc(Br)cc3)[nH]c3ccc(Cl)cc23)c1	viral replication	MT-4, IIIB		140 ± 13 nM
Cc1nn(C(C)c2nnc(Nc3ccn(Cc4ccccc4)n3)s2)c(C)c1Br (stereo not shown)	viral replication, luciferase reporter	TZM-bl, NL4-3		60 ± 10 nM
Cc1cc(C)cc(S(=O)(=O)c2c(C(=O)NCCCNS(=O)(=O)c3cccnc3)[nH]c3ccc(Cl)cc23)c1	viral replication	MT-4, IIIB		8 ± 0.89 nM
COc1nc(Nc2ccc(C#N)c(OCC=C(C)C)c2)nc(OCCOCCOc2nc(Nc3ccc(C#N)c(OCC=C(C)C)c3)nc(OC)n2)n1	protection from viral cytopathicity, MTT	MT-2, IIIB		> 6000 nM
COc1ccc2c(NC3CCNCC3)nc(NCc3ccc(CNCCCNC4CCCCC4)cc3)nc2c1	viral replication, luciferase reporter	TZM-bl, IIIB		8.6 ± 5.3 nM
Cc1cc(C)cc(S(=O)(=O)c2c(C(=O)NCCCCNS(=O)(=O)c3ccc(Cl)cc3)[nH]c3ccc(Cl)cc23)c1	viral replication	MT-4, IIIB		8.6 ± 0.82 nM
C[C@H](NP(=O)(OCCOCn1cnc2c(=O)[nH]c(N)nc21)Oc1ccccc1)C(=O)OCc1ccccc1 (stereo partly shown)	viral replication, measured: p24 antigen	LAI.04, human tonsil tissue ex vivo	12 d	1000 ± 400 nM
Cc1cn([C@H]2C[C@H](N=[N+]=[N-])[C@@H](CO)O2)c(=O)[nH]c1=O	viral replication, measured: reverse transcriptase activity	human PBM cells, LAI	144 h	5.4 nM

Excerpt of the above:
SMILES	assay	system	conditions	EC50
Cc1nn(C(C)c2nnc(Nc3ccn(Cc4ccccc4)n3)s2)c(C)c1Br (stereo not shown)	viral replication, luciferase reporter	TZM-bl, NL4-3		60 ± 10 nM
COc1ccc2c(NC3CCNCC3)nc(NCc3ccc(CNCCCNC4CCCCCC4)cc3)nc2c1	viral replication, luciferase reporter	TZM-bl, IIIB		45.4 ± 8.4 nM
